Experimental data gathered from unrelated publications.
Protocols differ between the studies behind these lines. ± gives the spread as reported.
USP5 ZnF-UBD domain: Ubiquitin carboxyl-terminal hydrolase 5, ZnF-UBD domain (USP5, Homo sapiens, UniProt P45974)
UniProt P45974, sequence (whole entry, looked up): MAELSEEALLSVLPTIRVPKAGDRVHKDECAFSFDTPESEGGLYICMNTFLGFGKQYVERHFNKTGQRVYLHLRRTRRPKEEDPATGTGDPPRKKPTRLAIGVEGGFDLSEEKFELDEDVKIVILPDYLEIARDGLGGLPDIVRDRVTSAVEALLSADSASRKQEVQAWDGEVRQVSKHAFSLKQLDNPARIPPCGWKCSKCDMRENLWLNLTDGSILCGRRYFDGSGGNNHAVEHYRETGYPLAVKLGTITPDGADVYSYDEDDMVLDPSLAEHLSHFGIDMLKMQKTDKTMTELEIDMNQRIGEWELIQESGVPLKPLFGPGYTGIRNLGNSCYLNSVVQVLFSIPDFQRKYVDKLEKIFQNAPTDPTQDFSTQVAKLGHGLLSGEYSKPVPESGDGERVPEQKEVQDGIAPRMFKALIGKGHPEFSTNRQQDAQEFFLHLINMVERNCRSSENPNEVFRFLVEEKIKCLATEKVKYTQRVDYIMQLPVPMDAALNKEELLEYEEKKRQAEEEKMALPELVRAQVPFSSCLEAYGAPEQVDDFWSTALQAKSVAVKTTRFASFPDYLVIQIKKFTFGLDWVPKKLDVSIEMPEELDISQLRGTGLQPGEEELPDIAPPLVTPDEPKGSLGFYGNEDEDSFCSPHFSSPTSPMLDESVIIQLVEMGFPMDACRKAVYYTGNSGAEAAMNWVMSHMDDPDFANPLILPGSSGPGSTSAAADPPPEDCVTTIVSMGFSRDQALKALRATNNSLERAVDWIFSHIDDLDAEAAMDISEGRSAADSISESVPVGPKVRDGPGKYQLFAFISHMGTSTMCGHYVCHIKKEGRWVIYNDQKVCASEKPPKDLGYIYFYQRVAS
Tumor necrosis factor receptor superfamily member 1A extracellular domain: Tumor necrosis factor receptor superfamily member 1A, extracellular domain (Homo sapiens, UniProt P19438)
UniProt P19438, sequence (whole entry, looked up): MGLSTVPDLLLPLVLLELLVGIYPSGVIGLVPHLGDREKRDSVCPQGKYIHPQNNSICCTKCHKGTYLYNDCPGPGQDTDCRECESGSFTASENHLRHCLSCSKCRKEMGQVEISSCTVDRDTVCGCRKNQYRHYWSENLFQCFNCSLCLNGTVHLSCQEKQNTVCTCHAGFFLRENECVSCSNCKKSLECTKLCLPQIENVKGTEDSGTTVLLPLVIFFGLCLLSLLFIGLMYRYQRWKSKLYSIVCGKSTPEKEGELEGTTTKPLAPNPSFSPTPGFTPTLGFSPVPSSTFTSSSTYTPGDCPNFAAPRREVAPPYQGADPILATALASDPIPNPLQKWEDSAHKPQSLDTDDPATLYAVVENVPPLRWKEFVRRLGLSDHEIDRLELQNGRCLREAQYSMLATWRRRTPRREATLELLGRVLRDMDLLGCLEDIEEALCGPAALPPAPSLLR
GATD3: Glutamine amidotransferase-like class 1 domain-containing protein 3, mitochondrial (GATD3, Homo sapiens, UniProt P0DPI2)
UniProt P0DPI2, sequence (whole entry, looked up): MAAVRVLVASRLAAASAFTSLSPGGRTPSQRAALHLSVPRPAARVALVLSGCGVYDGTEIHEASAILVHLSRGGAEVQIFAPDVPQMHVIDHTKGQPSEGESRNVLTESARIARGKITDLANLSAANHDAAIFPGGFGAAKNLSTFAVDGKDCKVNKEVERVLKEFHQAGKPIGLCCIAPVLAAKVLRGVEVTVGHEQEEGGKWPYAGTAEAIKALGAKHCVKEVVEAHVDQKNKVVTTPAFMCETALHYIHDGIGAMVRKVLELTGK
UniProt Q9UQL6, sequence (whole entry, looked up): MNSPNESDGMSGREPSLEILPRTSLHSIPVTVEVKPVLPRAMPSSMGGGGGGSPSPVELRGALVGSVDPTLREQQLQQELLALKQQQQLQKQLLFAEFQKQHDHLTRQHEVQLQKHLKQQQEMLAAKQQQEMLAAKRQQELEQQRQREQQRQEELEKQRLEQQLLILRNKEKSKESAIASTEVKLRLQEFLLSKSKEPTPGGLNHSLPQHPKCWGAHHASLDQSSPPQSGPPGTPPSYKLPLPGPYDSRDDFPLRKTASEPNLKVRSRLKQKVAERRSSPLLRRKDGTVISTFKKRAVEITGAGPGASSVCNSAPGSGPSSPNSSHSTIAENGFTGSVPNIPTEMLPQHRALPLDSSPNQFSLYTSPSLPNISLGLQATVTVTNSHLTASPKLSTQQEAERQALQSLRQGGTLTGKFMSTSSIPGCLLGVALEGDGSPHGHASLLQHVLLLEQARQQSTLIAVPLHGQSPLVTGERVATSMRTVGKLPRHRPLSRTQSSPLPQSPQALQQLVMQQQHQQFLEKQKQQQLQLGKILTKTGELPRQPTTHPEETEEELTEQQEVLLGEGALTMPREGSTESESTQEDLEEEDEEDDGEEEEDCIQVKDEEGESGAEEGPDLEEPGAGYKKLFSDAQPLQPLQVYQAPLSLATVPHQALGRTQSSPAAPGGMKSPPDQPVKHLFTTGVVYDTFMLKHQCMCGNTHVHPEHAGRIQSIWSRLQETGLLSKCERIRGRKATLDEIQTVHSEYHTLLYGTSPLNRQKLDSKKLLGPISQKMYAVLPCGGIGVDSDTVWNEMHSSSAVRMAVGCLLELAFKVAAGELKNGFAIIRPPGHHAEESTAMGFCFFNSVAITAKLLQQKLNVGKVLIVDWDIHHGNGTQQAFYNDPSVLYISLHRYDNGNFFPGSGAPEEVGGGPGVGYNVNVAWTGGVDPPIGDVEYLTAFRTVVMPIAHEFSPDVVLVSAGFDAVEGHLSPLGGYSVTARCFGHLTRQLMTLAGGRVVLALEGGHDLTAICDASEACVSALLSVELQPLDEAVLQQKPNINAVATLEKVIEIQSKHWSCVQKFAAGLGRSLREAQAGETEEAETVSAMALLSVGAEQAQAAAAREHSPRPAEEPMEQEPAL
UniProt P62993, sequence (whole entry, looked up): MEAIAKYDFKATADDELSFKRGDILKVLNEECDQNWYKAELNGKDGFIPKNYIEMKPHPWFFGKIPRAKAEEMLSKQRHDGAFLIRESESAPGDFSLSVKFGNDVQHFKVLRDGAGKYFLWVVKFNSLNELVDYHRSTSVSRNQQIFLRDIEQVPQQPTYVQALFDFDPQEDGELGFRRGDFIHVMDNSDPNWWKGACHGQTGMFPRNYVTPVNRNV

| SMILES | target | assay | test system | setting | Kd [µM] |
| --- | --- | --- | --- | --- | --- |
| Nc1nc(CC(=O)O)cs1 | USP5 ZnF-UBD domain |  |  |  | > 1000 |
| O=C(O)c1cc(-c2ccc(O)cc2)ccn1 | Tumor necrosis factor receptor superfamily member 1A extracellular domain | binding, SPR OneStep |  |  | 925 ± 72 |
| O=C(CCCCCN1C(=O)c2cccc3cccc(c23)C1=O)NO | GATD3 | inhibitor, competition pulldown | SW620 and MV4-11 lysate | 1 h | 23.3 |
| O=C(O)CCc1ccccc1OCc1ccccn1 | USP5 ZnF-UBD domain |  |  |  | > 1000 |
| CCCCc1nc2cc(/C=C/C(=O)NO)ccc2n1CCN(CC)CC | GATD3 | inhibitor, competition pulldown | SW620 and MV4-11 lysate | 1 h | > 30.2 |
| O=C(O)CCn1cccn1 | USP5 ZnF-UBD domain |  |  |  | > 1000 |
| O=C(CCCCCCNC(=O)c1cnc(N(c2ccccc2)c2ccccc2)nc1)NO | GATD3 | inhibitor, competition pulldown | SW620 and MV4-11 lysate | 1 h | 8.55 |
| CC(C)C[C@H](NC(=O)[C@H](Cc1c[nH]cn1)NC(=O)[C@H](CCCNC(=N)N)NC(=O)[C@H](CCCNC(=N)N)NC(=O)[C@@H](NC(=O)CNC(=O)[C@H](Cc1c[nH]cn1)NC(=O)[C@@H]1CCCN1C(=O)[C@H](CO)NC(=O)[C@@H]1CCCN1)[C@@H](C)O)C(=O)N1CCC[C@H]1C(=O)N[C@@H](CO)C(=O)N1CCC[C@H]1C(=O)N1CCC[C@H]1C(=O)O | Growth factor receptor-bound protein 2, C-terminal SH3 domain (GRB2, Homo sapiens, UniProt P62993) | binding to C-terminal SH3 domain, NMR titration |  |  | 650 |
| O=C(O)CCc1ccc2c(c1)OCO2 | USP5 ZnF-UBD domain |  |  |  | > 1000 |
| Nc1ccc(-c2ccnc(C(=O)O)c2)cc1 | Tumor necrosis factor receptor superfamily member 1A extracellular domain | binding, SPR OneStep |  |  | 969 ± 39 |
| C=CC(=O)N1CCN(c2nc(OC[C@@H]3CCCN3C)nc3c(F)c(-c4nc(N)cc(C)c4C(F)(F)F)c(Cl)cc23)[C@@H](C)C1 | GTPase KRas, GDP-bound (KRAS, Homo sapiens, UniProt P01116, G12D) | SPR |  |  | 10.5 ± 1.8 |
| CS(=O)(=O)NC(=O)c1cc(-c2ccc(F)cc2)ccn1 | Tumor necrosis factor receptor superfamily member 1A extracellular domain | binding, SPR OneStep |  |  | 1200 ± 50 |
| O=C(O)CNc1ccc2nncn2n1 | USP5 ZnF-UBD domain |  |  |  | > 1000 |
| Cn1cc(CNCC2CCN(c3ncc(C(=O)NO)cn3)CC2)c2ccccc21 | HDAC5 (Homo sapiens, UniProt Q9UQL6) | inhibitor, competition pulldown | SW620 and MV4-11 lysate | 1 h | 0.295 |
| O=C(O)c1ccc(-c2ccc3[nH]ccc3c2)cn1 | Tumor necrosis factor receptor superfamily member 1A extracellular domain | binding, SPR OneStep |  |  | 317 ± 4 |
| CN(C)Cc1c(C(=O)NCCOc2ccc(C(=O)NO)cc2)oc2ccccc12 | GATD3 | inhibitor, competition pulldown | SW620 and MV4-11 lysate | 1 h | > 30.2 |
| COc1ccc(OC)c(-c2ccc(C(=O)O)nc2)c1 | Tumor necrosis factor receptor superfamily member 1A extracellular domain | SPR OneStep |  | immobilized target | 1400 ± 50 |

For quick reference, copied from above:
| SMILES | target | assay | test system | setting | Kd [µM] |
| --- | --- | --- | --- | --- | --- |
| C=CC(=O)N1CCN(c2nc(OC[C@@H]3CCCN3C)nc3c(F)c(-c4nc(N)cc(C)c4C(F)(F)F)c(Cl)cc23)[C@@H](C)C1 | GTPase KRas, GDP-bound (KRAS, Homo sapiens, UniProt P01116, G12D) | SPR |  |  | 10.5 ± 1.8 |
| CS(=O)(=O)NC(=O)c1cc(-c2ccc(F)cc2)ccn1 | Tumor necrosis factor receptor superfamily member 1A extracellular domain | binding, SPR OneStep |  |  | 1200 ± 50 |
| O=C(O)CNc1ccc2nncn2n1 | USP5 ZnF-UBD domain |  |  |  | > 1000 |
